Measured values collected from several papers.
Numbered parts are unrelated; each lists some results of a single study.

Sample 1
Target: Sal-like protein 4, full length isoform B (SALL4, Homo sapiens, UniProt Q9UJQ4-2, residues 1-616)
Method: universal PBM
Molecule type: double-stranded DNA, one strand shown
Sample: in vitro
Tested at: not given
Setting: 8-mer, flanks averaged, mean of replicates
Reading: higher = stronger binding
Construct (chain): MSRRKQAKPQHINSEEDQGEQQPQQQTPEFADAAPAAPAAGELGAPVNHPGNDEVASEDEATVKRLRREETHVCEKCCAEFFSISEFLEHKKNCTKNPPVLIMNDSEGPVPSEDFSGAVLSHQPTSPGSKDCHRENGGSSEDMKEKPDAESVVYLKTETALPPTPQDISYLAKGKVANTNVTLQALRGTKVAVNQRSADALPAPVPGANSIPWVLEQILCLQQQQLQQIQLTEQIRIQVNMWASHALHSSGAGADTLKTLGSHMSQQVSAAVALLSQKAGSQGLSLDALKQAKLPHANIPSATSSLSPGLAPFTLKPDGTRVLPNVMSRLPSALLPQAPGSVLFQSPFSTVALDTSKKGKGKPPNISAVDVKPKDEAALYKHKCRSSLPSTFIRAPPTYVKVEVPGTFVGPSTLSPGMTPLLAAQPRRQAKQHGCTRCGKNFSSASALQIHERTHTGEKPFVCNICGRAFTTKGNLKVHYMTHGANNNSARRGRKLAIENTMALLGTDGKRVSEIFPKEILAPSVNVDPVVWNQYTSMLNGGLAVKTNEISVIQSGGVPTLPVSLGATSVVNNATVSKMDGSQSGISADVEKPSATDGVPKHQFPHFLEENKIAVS
With `CATTCTGC` the E-score was 0.00252.
`ACTCGGCA` has an E-score of -0.177.
For `CCTGTCAA`, the E-score was -0.0243.
The E-score of `CAGTTAAG` is reported as 0.0221.
`GGCGATTA` has an E-score of 0.0645.
The E-score of `AAAGCGAG` is reported as 0.0238.
With `CTTGTCTC` the E-score was -0.158.
For `ATGGCATA`, the E-score was 0.205.
The E-score of `AAATTAAG` is reported as 0.265.
The E-score of `CCTATCAG` is reported as -0.0532.
With `AACGCTTG` the E-score was -0.103.
The E-score of `ACCCTCTA` is reported as 0.014.
`CTGAGCGA` has an E-score of -0.185.
For `AACTGACA`, the E-score was -0.0419.
`CCAGAAGA` has an E-score of 0.0658.
The E-score of `GGAGACAA` is reported as -0.0347.
With `GTGCTGAA` the E-score was -0.0832.
For `TCCCACAA`, the E-score was 0.0723.
For `CTACAGAG`, the E-score was 0.0404.
`GATTTCGA` gave an E-score of -0.0387.
The E-score of `CTTTACTA` is reported as 0.157.
`GACGGGCC` gave an E-score of -0.335.
The E-score of `AATCACCC` is reported as -0.0483.
For `ACGGTTAC`, the E-score was 0.0581.
`AGGATTTG` gave an E-score of -0.0215.

Sample 2
Target: Centromere-binding protein 1, full length, N-terminal tag (CBF1, Saccharomyces cerevisiae, UniProt P17106, residues 1-351)
UniProt P17106, sequence (whole entry, looked up): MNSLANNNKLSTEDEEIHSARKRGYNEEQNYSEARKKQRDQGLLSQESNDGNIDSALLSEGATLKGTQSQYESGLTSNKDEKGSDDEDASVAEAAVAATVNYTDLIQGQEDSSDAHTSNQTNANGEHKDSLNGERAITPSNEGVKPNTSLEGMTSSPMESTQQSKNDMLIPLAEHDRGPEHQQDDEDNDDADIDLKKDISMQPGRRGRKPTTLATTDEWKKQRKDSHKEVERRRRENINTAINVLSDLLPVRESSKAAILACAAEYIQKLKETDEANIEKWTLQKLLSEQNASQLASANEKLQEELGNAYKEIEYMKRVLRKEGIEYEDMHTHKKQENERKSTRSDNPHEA
Method: protein-binding microarray
Molecule type: double-stranded DNA, one strand shown
Sample: in vitro
Tested at: 0.8 µM
Setting: whole 60-bp probe, no competitor
Reading: higher = stronger binding
The fluorescence intensity of `GAAAACGGCCAATGTGACACCAGTTCACTCGGCTAGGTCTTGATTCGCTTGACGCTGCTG` is reported as 613 a.u.
`GAAGTATGCCAAGGCCTCGTGCATGTAGTGCGATAGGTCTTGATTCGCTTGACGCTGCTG` has a fluorescence intensity of 550 a.u.
With `GAAGCCACACATTTTCGCCTGATCTCTAGCCGCTAGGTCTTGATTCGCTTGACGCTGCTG` the fluorescence intensity was 509 a.u.
With `GAAATTAATTATAATCACGTTGTTCCTTCCCAATAGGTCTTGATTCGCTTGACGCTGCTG` the fluorescence intensity was 2300 a.u.
`GAATATGCGAAGCCTGATGTGAAGAAAAGAATTTAGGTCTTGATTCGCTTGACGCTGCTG` has a fluorescence intensity of 541 a.u.
`TGTACGAAGCTATGTCTGGTGACTATAGTAGTTAGGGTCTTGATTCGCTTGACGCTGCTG` gave a fluorescence intensity of 622 a.u.
The fluorescence intensity of `GAAGAGTCACTCCCCCGTGTGTTCGGTCCGGCCTAGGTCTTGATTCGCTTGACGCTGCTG` is reported as 549 a.u.
With `CTAAATATGGAAAAAGTGATGACCATGATGCCTTTCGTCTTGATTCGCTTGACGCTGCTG` the fluorescence intensity was 545 a.u.
For `CTAATTGAGAACACAAAGATCACGTTGAACGAATTCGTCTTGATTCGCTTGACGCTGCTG`, the fluorescence intensity was 1730 a.u.
`TGTACGAAGCTATGTCATGCTCATATAGTAGTTAGGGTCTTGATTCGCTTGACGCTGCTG` gave a fluorescence intensity of 573 a.u.
With `CTAGGAGAAGACAGGCACGCAGAAACGAACGTTTTCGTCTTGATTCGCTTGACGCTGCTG` the fluorescence intensity was 480 a.u.
The fluorescence intensity of `GAAATCAGCTAAAGCATCAGAAGCGAAATGGCATAGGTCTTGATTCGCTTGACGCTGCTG` is reported as 523 a.u.
With `GAACGTCGTGATGTTCACGCGCTTTGCCCACATTAGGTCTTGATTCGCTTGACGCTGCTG` the fluorescence intensity was 589 a.u.
With `CTAAAGTCTGCAGCTCACGTTTTAGAATAACAATTCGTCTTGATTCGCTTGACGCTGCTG` the fluorescence intensity was 719 a.u.
With `CTATGGATTGATTTTCACATGTATCGTTTATGATTCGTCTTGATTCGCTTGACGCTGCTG` the fluorescence intensity was 665 a.u.
`CTATAAAGGGACCAAAACGTGGGGAAGGGATGCTTCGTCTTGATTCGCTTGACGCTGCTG` gave a fluorescence intensity of 510 a.u.
For `GAATGCTATGTTCGTCACGGTACAAACTTTGCGTAGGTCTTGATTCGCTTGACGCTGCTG`, the fluorescence intensity was 865 a.u.
The fluorescence intensity of `GAAGCAGTATGCACTTGGGTGACATGTAAAAGTTAGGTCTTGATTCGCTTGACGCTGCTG` is reported as 523 a.u.
The fluorescence intensity of `GAACTTTTGTTTTAACACGTTGAGACTATCTAATAGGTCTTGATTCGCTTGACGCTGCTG` is reported as 580 a.u.
The fluorescence intensity of `GAAATGGAACTTTATCAGGAGAAGTGGTTCAAATAGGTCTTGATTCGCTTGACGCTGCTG` is reported as 524 a.u.
For `CTATGTGAATATGAGCGCACGCAATACATTGAGTTCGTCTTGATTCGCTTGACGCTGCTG`, the fluorescence intensity was 531 a.u.
With `GAATCCATAATGTCCCTCATGACCCATCTCTGCTAGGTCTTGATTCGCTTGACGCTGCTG` the fluorescence intensity was 629 a.u.
`GAACCTCTTACACCGCATGTGATGCTATTACTATAGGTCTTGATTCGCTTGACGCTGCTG` gave a fluorescence intensity of 1340 a.u.
The fluorescence intensity of `GAAGGCCTCGTGGCGCACATGGTACGCTGTGGTTAGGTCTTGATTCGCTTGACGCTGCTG` is reported as 731 a.u.
`CTAGGAATTGTGCGTGGTCATTCAATACGGAGATTCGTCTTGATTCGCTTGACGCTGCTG` has a fluorescence intensity of 585 a.u.

Sample 3
Target: RNA binding protein fox-1 homolog 2, RRM domain, GST-SBP tag (RBFOX2, Homo sapiens, UniProt O43251-10, residues 100-194)
Method: RNA Bind-n-Seq
Molecule type: RNA
Sample: in vitro
Tested at: 365 nM
Setting: natural RNA segment, single round, ends assumed
Baseline: no-protein control
Reading: higher = stronger binding
Target sequence (chain): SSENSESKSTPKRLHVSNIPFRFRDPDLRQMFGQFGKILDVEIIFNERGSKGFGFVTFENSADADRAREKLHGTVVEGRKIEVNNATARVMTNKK
`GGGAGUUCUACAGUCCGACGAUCAGCCCUUAUUUGGAAAGUGUGAAAUUUGUAUUUGGAAAAGCUGCCUGGAGAGAAGAACUGUGUCCUUUACUGUAUUUCAACAGGACUCUUUUGGGGGAUCAAAAUUAAAAUGGAAUUCUCGGGUGCCAA` — result for “RBNS enrichment (R)”: 1.36.
`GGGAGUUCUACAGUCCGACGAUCAAAACAGUGUGUCACUGGUGUCACACUGGCAUCAUGGCACUGGCGUCAUGGCACUAAGCCACUCAGACCAGCUACCUGUGACCCUGGUUCUCCAAGAAGCAGACGUUGGUUGGAAUUCUCGGGUGCCAA` — result for “RBNS enrichment (R)”: 0.148.
For `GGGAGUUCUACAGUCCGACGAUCCGCCAGCAGAACUCAAUAGCCCAGGAUGUGCUAUCGAAGACAAUGUUUUUAGUUGCUAUCUGUAGCGUGACAACGGGCAGCUAUAUUUACAGGCUUUCAUUCUAUCUUAUUGGAAUUCUCGGGUGCCAA`, “RBNS enrichment (R)” read 0.387.
`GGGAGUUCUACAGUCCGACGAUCUUGGUAGCAAUAUCUUUGAAUAUGAUGAAUAAAAGUGACUGUGAGUGCAAAUAGAAUUAGCAGUAAGAAGCUACUCUAGCUAAUUUGCCAUUUUACUUAAAUGGAAAAUGUGGAAUUCUCGGGUGCCAA`: “RBNS enrichment (R)” 0.367.
Under “RBNS enrichment (R)”, `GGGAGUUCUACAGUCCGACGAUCCAGCUCCCAACUGUGGCCAUGGCUUAGUUGCAUAAAAGCAGGCAUGACUGGCUGUUAGGAGGUAUGGUGUGAAAGGGUAUCAGUCCAGGUAUGGCCCGGGAACUCUCUGGUGGAAUUCUCGGGUGCCAA` is recorded as 2.86.
`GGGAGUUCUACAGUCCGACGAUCUUUCCAGCUGCAGGUUUGUUAGAGUCUGUUCUACAUGGGCCUGCCCUCCUGUGAUGGGCAGAGGCUCCUGGUACAUCGAGAAGAUUCCUGUGGAUCCCGUCAGGAGGGACUGGAAUUCUCGGGUGCCAA` — result for “RBNS enrichment (R)”: 0.436.
`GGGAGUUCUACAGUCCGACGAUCUCUGCAGACCCUUCCCCCACUGCUCAAAGUCCUCCCGUGCUUGGUGUGUGGGACCACCGGCUCCACCCUCCCCGCCCAUCACCAUUGCAGUUUUGCUAGAAGCUGGCGCUUGGAAUUCUCGGGUGCCAA` — result for “RBNS enrichment (R)”: 0.88.
Under “RBNS enrichment (R)”, `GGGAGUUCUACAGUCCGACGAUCGCCCCCCAAGGGGGUCCCCAGCAACCAGGCCUGGCCUCCUGGUGUCUGCGGUCACAGUGGCCCCUGGGCAGGGGCACCCAGGCUGACCCUGAGGUGCUGCUGCUGGGUCUUGGAAUUCUCGGGUGCCAA` is recorded as 0.262.
Under “RBNS enrichment (R)”, `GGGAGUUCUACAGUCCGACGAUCCCUGGAGCUGUGGCCUGAGGGCCUGCUGGGGUCCCACUCACCCACUUAGGUCUAGUCGCUAGAUCCCCCGUUUUCCCAAGAAGAGGGUUCGAGCCCUUGGUGGGGACAGCUGGAAUUCUCGGGUGCCAA` is recorded as 0.302.

Sample 4
Target: Interferon regulatory factor 5, full length, phosphomimetic (IRF5, Homo sapiens, UniProt Q13568-2, residues 1-514, K96S/S451D/S453D/S456D/S462D)
Method: protein-binding microarray
Molecule type: double-stranded DNA, one strand shown
Sample: in vitro
Tested at: 250 nM
Setting: 60-bp whole probe
Added: salmon DNA 0.4 mg/ml
Baseline: random background probes
Reading: higher = stronger binding
Shared flanks, not repeated: GCCTAGCAC … GTCTTGATTCGCTTGACGCTGCTG
`TTAGGACTGCTTTACCTTTAGTGCTAG` has a log fluorescence of -0.203 z-score.
For `GACGTTTTCGGGACTGGGGACGTGCTA`, the log fluorescence was 2.61 z-score.
`GACCAACTGAGACTGGAGACGTGCTAG` has a log fluorescence of -0.193 z-score.
For `GAGGGTTTCCTTATCCTGACGTGCTAG`, the log fluorescence was 0.124 z-score.
For `TTAGAACTAAGACTGGATTAGTGCTAG`, the log fluorescence was 0.0972 z-score.
With `TGTGTTTTAAATAGGGCAAAGTGCTAG` the log fluorescence was 0.335 z-score.
`TTAGATATCGGAACTGGATTAGTGCTA` has a log fluorescence of 1.62 z-score.
The log fluorescence of `GACGAACTGGTGACTGGAGACGTGCTA` is reported as -0.465 z-score.
For `GACGGACTGGGTCTCGGGTCGTGCTAG`, the log fluorescence was -0.606 z-score.
For `CCTCCCCTTGCTTTCCAATTGTGCTAG`, the log fluorescence was -0.103 z-score.
The log fluorescence of `GACGGACTGGCCTATCGGGACGTGCTA` is reported as -0.316 z-score.
For `GACGGACTGGGTATCGGGAGGTGCTAG`, the log fluorescence was 0.144 z-score.
`GACGGTATCGGACTCGGGACGTGCTAG` gave a log fluorescence of 0.911 z-score.
The log fluorescence of `TTAGGTATCGGTCTCGGGTAGTGCTAG` is reported as 6.19 z-score.
`TCAACTTGGAATTTCCCACTGTGCTAG` gave a log fluorescence of 0.17 z-score.
The log fluorescence of `GTTGTACTTTCTATCTCTGTGTGCTAG` is reported as 3.6 z-score.
`TACGATTTCGGGTATCGAGACGTGCTA` has a log fluorescence of 4.46 z-score.
For `GACGGTCTCGGTCTCGGCACGTGCTAG`, the log fluorescence was 0.0187 z-score.
